# Assay results gathered from unrelated publications.
# Each numbered part is a random draw from the data of one study; scales do not carry over between parts. Positions count from the first letter of the parent shown.

# Set 1
# Target: RING finger protein unkempt homolog, zinc fingers 1-6, GST-SBP tag (UNK, Homo sapiens, UniProt Q9C0B0, residues 30-357)
# Method: RNA Bind-n-Seq
# Form: RNA
# Matrix: in vitro
# Concentration: not given
# Notes: RNA with constant flanks, human and mouse sites, ends assumed
# Reference: input RNA pool
# Reading: higher = stronger binding
# All sequences stand within: GGGAGUUCUACAGUCCGACGAUC … CAACAGAGGAUUGAGCAUCA
# Residues (chain): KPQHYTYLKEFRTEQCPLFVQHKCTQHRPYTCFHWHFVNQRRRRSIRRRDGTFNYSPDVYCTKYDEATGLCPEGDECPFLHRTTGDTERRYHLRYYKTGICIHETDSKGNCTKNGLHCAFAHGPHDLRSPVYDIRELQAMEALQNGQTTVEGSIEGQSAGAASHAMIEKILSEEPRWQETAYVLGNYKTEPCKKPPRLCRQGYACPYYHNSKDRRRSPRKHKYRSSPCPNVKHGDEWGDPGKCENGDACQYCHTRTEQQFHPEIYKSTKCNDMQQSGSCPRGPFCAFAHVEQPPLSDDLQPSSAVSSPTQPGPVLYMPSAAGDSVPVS
Strand,bound/input enrichment [ratio]
CCUUCCCACCUCUUCCUAUGCAACAAGAUCCGAUACUUGGACUUAUCGUACAAUGACAUUCGAUUUAUCCCCCCUGAAAUUGGAGUUCUACAAAGUUUACAGUAUUUUUCCAUCACAUGU,0.508
AAGAGGGCGAAUAUUCGCCUCCCACCUGAAGUAAAUCGGAUUUUGUAUAUAAGGAAUUUGCCAUACAAAAUCACAGCAGAAGAAAUGUAUGAUAUAUUUGGGAAAUAUGGACCUAUUCGU,0.211
AUCUGUAAGCCUUUGGUGGAAGAUAAUGAAGAAGAAAGUUGUUAUAUUUUACAUUCAAGCAGUAAUGAAGACAAGACUGAAUUUUCAGGAACAAUUCAUGAUAUAAAUUCAUCUUUAAUA,0.146
AUCAUUCAUGACCCUGGCCGCGGCGCUCCCCUCGCCAAAGUCGUCUUUCGGGAUCCCUACCGAUUCAAGAAGCGGACAGAGCUGUUCAUCGCAGCGGAGGGGAUCCACACUGGACAGUUC,0.0357
CGCAACGUGGCUGUGGAGCGUAAGAACCUGAUCACCGUGUGCAGGUUCUCUGUGAAAACGCUGCUGGAGAAGUACACAGCGGAGCCCAUCGAUGACUCAUCGGAGGAGUUUGUCAAUUUU,0.0788
CUGCGAAGACAGCUGGCAGAACUCAACAAAAAUCCAGUGGAAGGCUUUUCAGCAGGUUUAAUAGACGACAAUGAUCUCUAUCGUUGGGAAGUCCUUAUUAUUGGUCCUCCAGAUACACUU,0.106
CAUUUGUAUUGUACAUAAAAUUUUCUAGAAAUACACUUUUUUCCAAAGUGUAAGUUUGUGAAUAGAUUUUAGCAUGAUGAAACUGUCAUAAUGGUGAAUGUUCAAUCUGUGUAAGAAAAC,0.796
CAGAUGAGGAAACUGAGGCCCAGAGAAGCGGAAAGGACUUCCCUAGACCUUACAGUAAAUUAGCAUUAAAUGCAGCCUUCCUACCUAGUGGGCACCUUGCUUACAAAAAUUUACCUAGGG,2.8
UCUUUCUAGUGUCAGCCUUCAGGGUGAUCUAGGAAAGAAUAACACUUCGGAAUGUGGCUUAUACUUUUAGAGAUUUAGAAAGAAAAUAUGUUACUAAGGCUUACAAUCAGAUUUUGUAUU,131
GACUGGGAGCAGACUCAGAAAAUCUACAAUUGUCACGUGCUGCUGAACAGCAAAGGGGCAGUAGUGGCCACUUACAGGAAGACACAUCUGUGUGACGUAGAGAUUCCAGGGCAGGGGCCU,0.148
GCUUCGACCCAGCUGAGGAGCGAAGAGCUGCUGGCAGCGCCGAUUCCCAGCACGCCGCUUUUUAGAACUUCAGUUGUCAAAAUGGGCAGAAUCUUUCUUGACCAUAUCGGUGGUACCCGU,0.131

# Set 2
# Target: CCNB2, cyclin fold, Cln2 fusion (human)
# Method: yeast growth competition, sequencing
# Matrix: yeast
# Notes: weak parent motif
# Reference: not given
# Reading: higher = stronger binding
# Starting sequence: RBL2 docking peptide (human); STTRRRLFVENDS
Change,normalised enrichment score
R5C,0.11
L7K,0.0648
S1C,0.614
F8V,0.147
V9L,-0.122
S1D,0.785
N11W,0.398
R5H,0.434
T2Y,-0.0434
L7E,-0.0638
R6S,0.469
V9K,0.61
S13Q,-0.0273
R5S,0.432
T2P,0.511
F8D,-0.146
L7S,-0.0335

# Set 3
# Target: ABI1, truncated, D143A, DHFR fusion (Arabidopsis thaliana)
# Method: DHFR PCA, deep sequencing
# Matrix: yeast
# Notes: methotrexate growth selection, single substitutions
# With: (+)-ABA 0.0091 µM
# Reference: wild-type fitted maximum
# Reading: higher = stronger binding
# Starting sequence: PYL1, truncated, DHFR fusion (Arabidopsis thaliana); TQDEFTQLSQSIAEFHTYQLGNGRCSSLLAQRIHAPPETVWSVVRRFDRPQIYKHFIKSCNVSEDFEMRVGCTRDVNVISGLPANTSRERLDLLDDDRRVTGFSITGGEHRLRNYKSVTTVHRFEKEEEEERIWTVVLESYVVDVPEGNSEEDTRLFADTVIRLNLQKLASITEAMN
Change,relative binding score
R88K,33.8%
P36R,13.6%
Q167F,-4.01%
D97V,30.4%
R74F,-0.951%
E4L,26.4%
L169Q,-1.96%
E129F,6.95%
T119C,-0.0268%
R99K,46.6%
Q2F,67.9%
N85W,42.2%
R88G,-1.71%
E38M,-7.74%
K168A,1.3%
E4N,2.76%
A175K,23.3%
T1I,34.3%
P37A,23.8%
D153L,-2.35%
E128Q,25.4%

# Set 4
# Target: Interferon regulatory factor 7, full length, phosphomimetic (IRF7, Homo sapiens, UniProt Q92985, residues 1-503, S471D/S472D/S475D/S476D/S477D/S483D/S484D/S487D)
# Method: protein-binding microarray
# Form: double-stranded DNA, one strand shown
# Matrix: in vitro
# Concentration: 2200 nM top
# Notes: 60-bp whole probe
# With: salmon DNA 0.4 mg/ml
# Reference: random background probes
# Reading: higher = stronger binding
# All sequences stand within: GCCTAGCAC … GTCTTGATTCGCTTGACGCTGCTG
# Construct (chain): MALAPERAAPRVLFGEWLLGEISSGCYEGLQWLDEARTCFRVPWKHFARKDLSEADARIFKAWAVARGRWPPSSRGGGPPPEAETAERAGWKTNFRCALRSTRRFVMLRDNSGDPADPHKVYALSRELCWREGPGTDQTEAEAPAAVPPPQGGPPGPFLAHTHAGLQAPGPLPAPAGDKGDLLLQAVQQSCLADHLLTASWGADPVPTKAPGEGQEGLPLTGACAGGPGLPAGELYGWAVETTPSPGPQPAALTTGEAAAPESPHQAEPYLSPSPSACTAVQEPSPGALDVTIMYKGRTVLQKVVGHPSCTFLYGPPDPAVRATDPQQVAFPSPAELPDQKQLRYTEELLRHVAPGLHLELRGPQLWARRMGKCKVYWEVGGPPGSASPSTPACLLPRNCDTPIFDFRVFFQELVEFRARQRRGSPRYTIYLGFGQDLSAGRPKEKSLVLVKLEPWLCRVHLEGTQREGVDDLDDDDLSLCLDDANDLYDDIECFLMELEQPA
Strand,fitted relative affinity [z-score]
TTCGATTTCGGGACTGGATTAGTGCTA,2.76
TAAGGTCTCGGTTTCGGTTAGTGCTAG,7.6
GACGAACTGGGGTACCGAGACGTGCTA,-0.475
TCAGGTATGCTCATGACACTGTGCTAG,0.577
GACGGACTGGGGACTGGGGATGTGCTA,-0.61
TTAGGTTCCGGTCTCGGTTAGTGCTAG,1.56
TTAGGACTGCGACTGGGTTAGTGCTAG,-0.436
ACACTCTTCTTTTGCTAATTGTGCTAG,1.96
TTTTTTTTTTTTTTTTTACTGTGCTAG,1.9
GGAAGCAGTGAGAAGGTGGCGTGCTAG,-0.502
GTCGGTATCGGACTGGGGACGTGCTAG,0.174
GACGCTATCGGGTATCGGGACGTGCTA,0.276
TCACCTCTGGGATCCCAGACTGTGCTA,0.483
GACGGACTGGGTTTCGGAACGTGCTAG,1.58
TTAGGACTGCGTATCGGTTAGTGCTAG,-0.00843
TTATGTCTCCTTTTCCTTTAGTGCTAG,2.99
GACGGTTTTGGTTTCGGGACGTGCTAG,5.54
TTAAGTTTCGGTTTCGGTTAGTGCTAG,17.5
TTTCATTTATTTACTCTCTACGTGCTA,4.18
GACGGACTGGACTATCGGCACGTGCTA,-0.724
TTAGTTTTCAGTCTCGATTAGTGCTAG,2.96
GACGATTTCAGACTTGAGACGTGCTAG,0.373
GACGGACTGCCTTTCCTGACGTGCTAG,0.735

# Set 5
# Target: Histone acetyltransferase KAT6A, both winged helices, GST fusion (KAT6A, Homo sapiens, UniProt Q92794, residues 1-181)
# Method: protein binding microarray
# Form: double-stranded DNA, one strand shown
# Matrix: in vitro
# Concentration: not given
# Notes: 8-mer, flanks averaged, mean of 2 arrays, mostly near background
# Reference: not given
# Reading: higher = stronger binding
# Construct (chain): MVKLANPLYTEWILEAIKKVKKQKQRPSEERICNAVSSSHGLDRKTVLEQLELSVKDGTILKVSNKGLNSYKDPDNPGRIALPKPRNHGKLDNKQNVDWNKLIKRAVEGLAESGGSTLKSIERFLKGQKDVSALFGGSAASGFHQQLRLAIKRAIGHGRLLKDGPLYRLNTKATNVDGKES
Strand,E-score
ACAATCGA,-0.197
ACCCGCTG,0.19
GACTGATC,-0.00341
TCTTGTAA,-0.0592
ATTTCGCA,-0.0877
AAATGCAT,-0.0236
CGAACGCG,0.316
AAGGTCTA,-0.074
CGTTGTAA,-0.033
AACGTGGG,-0.141
AATATCAA,-0.0964
AGGGGGTG,-0.212
GGGCACAC,-0.185
ATATGCAT,0.0406
TACGTCTA,-0.11
GGTGCTGA,-0.173
CACCACGG,0.0706
GTAAGCAC,-0.0804
AGCATTTC,-0.154
CCGCCCCA,-0.0343
CAGTTTAG,-0.202
AATGGGTA,-0.0762
CTAGGCGC,0.24
AGAGACCC,-0.0229
CCGCTAGC,0.181

# Some of these lines once more (set 2):
Change,normalised enrichment score
R5C,0.11
L7K,0.0648
S1C,0.614
F8V,0.147
V9L,-0.122
S1D,0.785
N11W,0.398
R5H,0.434
T2Y,-0.0434
